Experimental data of several laboratories.
A part holds a random share of what one study measured.
Chain of UniProt Q16584 (whole entry, looked up): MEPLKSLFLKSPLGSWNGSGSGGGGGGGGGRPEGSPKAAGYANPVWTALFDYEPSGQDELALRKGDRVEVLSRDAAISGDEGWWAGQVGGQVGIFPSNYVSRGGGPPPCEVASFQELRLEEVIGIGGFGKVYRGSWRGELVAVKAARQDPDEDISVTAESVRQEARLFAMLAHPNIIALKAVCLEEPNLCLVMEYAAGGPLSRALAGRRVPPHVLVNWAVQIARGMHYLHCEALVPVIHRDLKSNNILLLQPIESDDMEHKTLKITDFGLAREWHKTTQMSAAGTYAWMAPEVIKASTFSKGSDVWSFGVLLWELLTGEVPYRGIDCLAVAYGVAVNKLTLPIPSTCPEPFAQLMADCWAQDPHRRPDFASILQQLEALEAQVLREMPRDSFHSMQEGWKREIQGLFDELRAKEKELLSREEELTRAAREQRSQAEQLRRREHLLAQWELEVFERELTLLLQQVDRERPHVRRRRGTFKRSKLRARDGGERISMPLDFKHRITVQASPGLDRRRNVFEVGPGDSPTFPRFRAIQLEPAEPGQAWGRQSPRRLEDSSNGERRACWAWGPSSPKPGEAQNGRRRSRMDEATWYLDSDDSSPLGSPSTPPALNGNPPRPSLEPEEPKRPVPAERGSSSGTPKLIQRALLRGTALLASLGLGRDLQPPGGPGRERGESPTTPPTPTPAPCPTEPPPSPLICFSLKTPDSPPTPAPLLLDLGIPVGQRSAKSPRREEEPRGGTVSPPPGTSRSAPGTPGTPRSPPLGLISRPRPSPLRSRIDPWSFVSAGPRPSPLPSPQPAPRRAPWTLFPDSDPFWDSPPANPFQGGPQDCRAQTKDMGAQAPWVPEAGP
Chain of UniProt Q96BR1 (whole entry, looked up): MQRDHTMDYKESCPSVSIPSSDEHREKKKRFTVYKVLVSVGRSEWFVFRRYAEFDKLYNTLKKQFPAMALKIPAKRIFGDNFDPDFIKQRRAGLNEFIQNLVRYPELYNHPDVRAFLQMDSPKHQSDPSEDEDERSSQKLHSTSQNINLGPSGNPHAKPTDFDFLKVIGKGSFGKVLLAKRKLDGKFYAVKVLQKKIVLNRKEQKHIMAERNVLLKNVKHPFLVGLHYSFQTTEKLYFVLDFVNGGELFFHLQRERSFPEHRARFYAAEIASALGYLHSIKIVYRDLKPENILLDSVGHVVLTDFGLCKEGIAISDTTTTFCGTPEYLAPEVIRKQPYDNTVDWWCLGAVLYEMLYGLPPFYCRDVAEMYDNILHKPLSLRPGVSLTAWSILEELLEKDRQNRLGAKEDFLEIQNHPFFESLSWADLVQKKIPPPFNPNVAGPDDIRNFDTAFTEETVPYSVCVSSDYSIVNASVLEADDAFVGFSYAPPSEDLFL
Chain of UniProt Q13464 (whole entry, looked up): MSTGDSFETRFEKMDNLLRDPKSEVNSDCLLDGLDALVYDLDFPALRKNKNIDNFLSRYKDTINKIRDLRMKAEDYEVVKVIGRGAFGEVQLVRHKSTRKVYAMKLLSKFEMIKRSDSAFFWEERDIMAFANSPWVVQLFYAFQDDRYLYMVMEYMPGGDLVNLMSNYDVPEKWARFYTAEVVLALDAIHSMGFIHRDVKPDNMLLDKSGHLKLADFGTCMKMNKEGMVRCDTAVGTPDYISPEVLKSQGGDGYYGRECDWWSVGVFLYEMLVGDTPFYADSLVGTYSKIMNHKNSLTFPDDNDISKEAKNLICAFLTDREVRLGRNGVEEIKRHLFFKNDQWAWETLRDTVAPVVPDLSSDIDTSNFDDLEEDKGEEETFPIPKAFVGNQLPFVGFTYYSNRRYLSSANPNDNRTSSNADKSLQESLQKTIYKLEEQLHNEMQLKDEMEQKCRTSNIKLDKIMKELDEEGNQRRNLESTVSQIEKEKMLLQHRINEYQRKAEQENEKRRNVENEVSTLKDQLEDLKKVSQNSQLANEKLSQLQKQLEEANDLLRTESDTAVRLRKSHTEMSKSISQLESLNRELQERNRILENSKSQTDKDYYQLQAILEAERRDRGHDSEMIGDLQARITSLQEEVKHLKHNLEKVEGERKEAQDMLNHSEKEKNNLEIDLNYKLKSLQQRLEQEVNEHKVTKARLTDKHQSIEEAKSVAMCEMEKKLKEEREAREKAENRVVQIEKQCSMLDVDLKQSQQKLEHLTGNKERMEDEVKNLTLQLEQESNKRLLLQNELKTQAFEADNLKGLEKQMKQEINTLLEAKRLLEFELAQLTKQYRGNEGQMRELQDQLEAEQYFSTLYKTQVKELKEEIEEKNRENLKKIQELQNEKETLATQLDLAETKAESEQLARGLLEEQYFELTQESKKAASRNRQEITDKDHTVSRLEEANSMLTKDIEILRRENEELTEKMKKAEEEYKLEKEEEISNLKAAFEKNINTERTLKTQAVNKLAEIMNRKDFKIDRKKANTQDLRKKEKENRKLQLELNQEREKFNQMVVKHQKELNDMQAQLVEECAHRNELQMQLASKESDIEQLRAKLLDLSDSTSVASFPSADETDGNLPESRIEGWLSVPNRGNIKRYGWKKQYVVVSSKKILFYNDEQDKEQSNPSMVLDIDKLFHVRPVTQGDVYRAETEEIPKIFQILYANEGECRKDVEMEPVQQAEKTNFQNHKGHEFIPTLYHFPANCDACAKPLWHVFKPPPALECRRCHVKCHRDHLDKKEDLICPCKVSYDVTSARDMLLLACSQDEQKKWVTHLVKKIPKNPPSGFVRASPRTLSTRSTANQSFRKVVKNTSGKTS

Block 1
Compound: COc1ccc2cc(OCC3(C(=O)O)CN(C(=O)c4ccc(F)cc4)C3)ccc2c1
Effect on: cell-free assay
Technique: competition with immobilised ligand
Concentration: 1 µM
The remaining binding was 100% (Rho-associated protein kinase 1 (ROCK1, Homo sapiens, UniProt Q13464)).
Mitogen-activated protein kinase kinase kinase 11 (MAP3K11, Homo sapiens, UniProt Q16584) — remaining binding: 79%.
For Serine/threonine-protein kinase Sgk3 (SGK3, Homo sapiens, UniProt Q96BR1): remaining binding read 100%.

Block 2
Target: Fragile X messenger ribonucleoprotein 1, C-terminal low-complexity region (Fmr1, Mus musculus, UniProt P35922)
Technique: RNA Bind-n-Seq
Form: RNA
Matrix: in vitro
Concentration: 200 nM
Notes: whole 134-nt RNA, ends assumed
With: 150 mM LiCl
Relative to: input library
Reading: higher = stronger binding
All molecules: 7-deaza-guanosine replaces G
Constant ends, left off below: GGGAGUUCUACAGUCCGACGAUC … UGGAAUUCUCGGGUGUCAAGG
For `CAAGUCCUGUGCUACACAUCGUAUGUACCGAAUCAAAUUUAAAUUUAAAUUUAAAAAAGUAUUAUGUUACGCCGUUCGGAUCUGCACUUC`, the log2 enrichment was -2.17.
`ACCAUGCAGGUGGGCAUCUCUGGGAAGUGGGGCAAGGGGGGGAUAGGGAGGGGGGUAACACUUUGGGAACAGGUGGUCCCAGGUCGUUUC` gave a log2 enrichment of 1.53.
With `GUCCUGUGCUACACAUCGUAUGUACCGAAUCAAAUUUUUAAAUUUAAACCCCCCCAAAAAAGUAUUAUGUUACGCCGUUCGGAUCUGCAC` the log2 enrichment was 1.71.
With `ACCAUGCGGGUGGGCAUCUUUGGGAAGUGGGGCAAGGGGGGGAUAGGGAGGGGGGUAACACUUUGGGAACAGGUGGUCCCAGGUCGUUUC` the log2 enrichment was 1.53.
With `UCCUCAAGUCCUGUGCUACACAUCGUAUGUACCGAAUCGGCGGCGGGGCGGGAAAGUAUUAUGUUACGCCGUUCGGAUCUGCACUUCCAG` the log2 enrichment was 0.945.
With `UGGGAGGUGGAUUUUGUUUAUUUUUUUAGCUCAUUUCCAGGGGUGGGAAUUUUUUUUUAAUAUGUGUCAUGAAUAAAGCUGUUUUUGAAA` the log2 enrichment was 0.159.
The log2 enrichment of `GUCCUGUGCUACACAUCGUAUGUACCGAAUCGGGGAAAAAGGGGAAAGGGGAAAGGGGAAAGUAUUAUGUUACGCCGUUCGGAUCUGCAC` is reported as 1.09.
For `CCUCAAGUCCUGUGCUACACAUCGUAUGUACCGAAUCGGGGAAGGAAGGAAGGAAAGUAUUAUGUUACGCCGUUCGGAUCUGCACUUCCA`, the log2 enrichment was -1.47.

Block 3
Target: PABPC1L2, full length, GST fusion (mouse, UniProt A0ABA7IW68)
Technique: RNAcompete
Form: RNA
Matrix: in vitro
Concentration: 20 nM
Notes: 7-mer, probes averaged, single round
Relative to: mean of 7-mers
Reading: higher = stronger binding
Target sequence (chain): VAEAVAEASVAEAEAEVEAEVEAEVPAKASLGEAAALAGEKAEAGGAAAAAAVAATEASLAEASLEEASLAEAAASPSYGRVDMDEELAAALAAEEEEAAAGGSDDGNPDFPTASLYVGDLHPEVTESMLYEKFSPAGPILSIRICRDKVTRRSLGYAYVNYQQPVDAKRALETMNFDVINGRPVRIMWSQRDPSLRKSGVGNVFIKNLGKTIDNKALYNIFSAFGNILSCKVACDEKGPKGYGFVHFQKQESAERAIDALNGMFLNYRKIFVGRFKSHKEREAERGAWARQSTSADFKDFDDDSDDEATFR
`CAGGUAU` has a 7-mer Z-score of -0.0754.
`CGGAGUU` has a 7-mer Z-score of -0.287.
`AAGGCAA` has a 7-mer Z-score of 0.407.
`UCAUCGC` gave a 7-mer Z-score of -0.315.
`GUGGCGU` gave a 7-mer Z-score of -0.0228.
`GAUCUCG` gave a 7-mer Z-score of -0.269.
For `CAAACAG`, the 7-mer Z-score was 1.51.
The 7-mer Z-score of `CAGGUCG` is reported as -0.106.

Single results of other studies
The logD of `CCOC(=O)[C@@H]1CSCC(=O)N[C@H](CC)C(=O)N(C)[C@@H](C)C(=O)N[C@@H](CC(C)C)C(=O)N2CCC[C@H]2C(=O)N(CC)CC(=O)N[C@H](CC(C)C)C(=O)N(C)[C@@H](C)C(=O)N[C@@H](CC(C)C)C(=O)N1C` is reported as -0.199 (hydrocarbon/water).

Some of these lines once more (block 3):
`UCAUCGC` gave a 7-mer Z-score of -0.315.
The 7-mer Z-score of `CAGGUCG` is reported as -0.106.
